Results of several laboratories.
Protocols differ between the studies behind these lines. ± marks the error that the study gave.

Structure (SMILES)	cell line	assay	setting	how to read	quantity	result
COc1cc2c(cc1OC)CN(c1cccc(-c3nc4ccc(N5CCN(C)CC5)cc4[nH]3)c1)CC2	HT-22	protection from ferroptosis, CCK-8 viability	24 h, with: 1 µM erastin		EC50	1440 nM
Cc1nn(-c2ccc(S(=O)(=O)N[C@@H](CO)CC(C)C)cc2)c2nn3nnnc3nc12	HT-29	AO/EB staining	2 µM, 24 h		necrotic cells	19 ± 1.41%
COc1cc(CNC(=O)C[C@H](C)CCC=C(C)C)ccc1OCc1cn(-c2ccc(C#N)cc2)nn1	LOX IMVI	SRB	10 µM, 48 h		growth	72.6%
Cc1ccc(Nc2ncc3c(n2)N(C)C(=O)N(c2cc(NC(=O)c4cc(N5CCC(O)CC5)cc(C(F)(F)F)c4)ccc2C)C3)cn1	Hep3B	cell growth or viability, ATP luminescence	72 h		GI50	201 nM
CC(=O)OC[C@H]1O[C@@H](Sc2sc(C(=O)c3ccc(C)cc3)c(N)c2-c2nc3ccccc3s2)[C@H](OC(C)=O)[C@@H](OC(C)=O)[C@@H]1OC(C)=O	RXF 393	SRB	10 µM, 48 h	baseline: untreated	growth	53.5%
COc1cc(CNC(=O)C[C@H](C)CCC=C(C)C)ccc1OCc1cn(-c2ccccc2)nn1	MDA-MB-435 melanoma cells	SRB	10 µM, 48 h		growth percent	97.2%
CC(=O)OC[C@H]1O[C@@H](Sc2sc(C(=O)c3ccc(Br)cc3)c(N)c2-c2nc3ccccc3s2)[C@H](OC(C)=O)[C@@H](OC(C)=O)[C@H]1OC(C)=O	OVCAR-5	SRB	10 µM, 48 h	baseline: untreated	growth	105%
COc1cc(N2CCN(C(=O)C(N)CCCNC(=N)N)CC2)ccc1Nc1ncc(Cl)c(Nc2ccccc2P(C)(C)=O)n1 (stereo not shown)	NCI-H3122 GID4 knockout	degrader	concentration not given, 24 h	baseline: parental cells	EML4-ALK level	no effect
COc1cc(CNC(=O)C[C@H](C)CCC=C(C)C)ccc1OCc1cn(-c2cccc(Cl)c2)nn1	MDA-MB-435 melanoma cells	SRB	10 µM, 48 h		growth percent	93.8%
COc1c(OCCCCN2CCCC2)cc(O)c2c(=O)cc(-c3ccccc3)oc12	KBM5-T315I	CCK-8	12 h, with: ponatinib		combination index	13.4
O=C(N1CCCC1)n1cc(-c2ccc(-c3ccccc3)cc2)nn1	mouse T-cells	N-terminal labeled proteins, N-terminal enrichment proteomics, measured: NDRG1	1 nM, 6 h	baseline: DMSO	SILAC ratio	1.24 ± 0.28
CC(=O)O[C@@H]1CC[C@@]2(C)C(CC[C@]3(C)C2C(=O)C=C2C4[C@@H](C)[C@H](C)CC[C@]4(C)CC[C@]23C)[C@@]1(C)C(=O)N/N=C\c1ccc2c(c1)OCO2 (stereo partly shown)	RAW264.7	NO release, inhibitor, Griess	10 µM, 24 h, LPS-stimulated		inhibition	70.9%
CCOC(=O)c1nc2cc(Cl)c(Cl)cc2nc1N1CCN(C(=O)Nc2ccc(N3CCNCC3)cc2)CC1	RAW264.7		5 µM, with: LPS		lactate production	decreased
[Cl-].[Cl-].[Ru+2].c1ccc(-c2ccnc3c2ccc2c(-c4ccccc4)ccnc23)cc1.c1cnc2c(c1)ccc1cccnc12.c1cnc2c(c1)ccc1cccnc12	A549	Seahorse Mito Stress Test	concentration not given, with: 450 nm light 29.1 J/cm2	baseline: vehicle	maximal respiration reduction	≥ 90%
CS(=O)(=O)c1ccc(-c2nnc(/C=C/c3nnc(-c4ccc(C#N)cc4)o3)n2-c2ccccc2Cl)nc1	COLO 320DM	qRT-PCR, measured: AXIN2 and MYC	concentration not given, 48 h		mRNA level	decreased
CC(C)Cc1ccc(C(C)C(=O)N/N=C/c2ccc(OCC(=O)N/N=C/c3cccc(O)c3)cc2)cc1 (stereo not shown)	U87 MG	MTT	100 µM, 48 h		viability	107%
COc1cc(CNC(=O)C[C@H](C)CCC=C(C)C)ccc1OCc1cn(-c2ccccc2[N+](=O)[O-])nn1	DU-145	SRB	10 µM, 48 h		growth percent	77.9%
COc1ccc([C@@H]2CC(=O)c3c(O)cc(O[C@@H]4O[C@H](CO[C@@H]5O[C@@H](C)[C@H](O)[C@@H](O)[C@H]5O)[C@@H](O[C@H]5O[C@H](CO)[C@@H](O)[C@H](O)[C@H]5O)[C@H](O)[C@H]4O)cc3O2)cc1O	MRC5	trypan blue exclusion	50 µg/mL, 24 h		cell count	10400 ± 598
CC(C)C[C@H](NC(=O)[C@H](CC(C)C)NC(=O)[C@@H](N)C(C)C)C(=O)N[C@@H](CO)C(=O)N1CCC[C@H]1C(=O)N[C@@H](CC(C)C)C(=O)N[C@@H](CO)C(=O)N[C@@H](CCCNC(=N)N)C(=O)N[C@H](C(=O)O)C(C)C	SK-N-MC, HLA-A*02:01	quantitative immunopeptidomics			peptide-MHC complexes per cell	3 p-MHC complexes/cell
COc1cc(CNC(=O)C[C@H](C)CCC=C(C)C)ccc1OCc1cn(-c2ccccc2F)nn1	MDA-MB-435 melanoma cells	SRB	10 µM, 48 h		growth percent	100%
CC1(C)OC(=O)C[C@H](O)[C@]2(C)[C@H]3CC[C@@]4(C)[C@H](c5ccoc5)OC(=O)[C@H]5O[C@]54[C@]3(C)C(=O)C[C@@H]12	COLO 320 (ABCB1-overexpressing, multidrug-resistant)	cell growth	200 µM starting, CI at ED50, with: doxorubicin, ratio 742.5:1		combination index	0.82
COCCO[C@H]1CC[C@H](Nc2cc(=O)n(C)c3ccc(-c4cncs4)cc23)CC1	PBMC	ELISA	10 µM, 288 h		IFN-γ level	21.1%
O=Cc1c(O)ccc2ccccc12	HUVEC	RNA sequencing, measured: FAM129A	75 µM, 24 h	baseline: DMSO	log2 fold change	3.81
CC/C=C\C/C=C\C/C=C\C/C=C\C/C=C\C/C=C\CCC(=O)Nc1ccn(C2OC(CO)C(O)C2(F)F)c(=O)n1 (stereo not shown)	EKVX	cell growth or viability, SRB			GI50	852 nM
C=CC(=O)N1CCCC(n2c(=O)c3ncccc3n(Cc3ccc(Oc4ccccc4)cc3)c2=O)C1 (stereo not shown)	acute leukemia cell lines	cell proliferation	concentration not given, 72 h		antiproliferative activity	inactive

Structure (SMILES)	cell line	assay	setting	how to read	quantity	result
CC(C)Cc1ccc(C(C)C(=O)NN=Cc2ccc(OCC(=O)NN=Cc3cccc([N+](=O)[O-])c3)cc2)cc1 (stereo not shown)	U87 MG	MTT	100 µM, 48 h		viability	62.2%
Brc1ccc(Nc2nc(NN=Cc3c[nH]c4ccccc34)nc(N3CCOCC3)n2)cc1	SK-BR-3	Western blot, measured: HER2, AKT, RAF-1, CDK4, CDK6	concentration not given, 12 h		protein level	decreased
Cc1ccc(CN2C(=O)/C(=N\c3ccc(Cl)cc3Br)c3ccccc32)cc1	B16		0.8 µM, 48 h		apoptotic cells	30.9%
COc1cc(CNC(=O)C[C@H](C)CCC=C(C)C)ccc1O	LOX IMVI	SRB	10 µM, 48 h		growth	93%
O=C1Nc2ccc(Cl)cc2C1=Cc1c(Cl)[nH]c2c1ccc1ccccc12	colon cancer subpanel of NCI-60		48 h		TGI	6.17 µM
CC(C)Cc1ccc(C(C)C(=O)N/N=C/c2ccc(OCC(=O)N/N=C/c3c(O)ccc4ccccc34)cc2)cc1 (stereo not shown)	U87 MG	MTT	10 µM, 48 h		viability	121%
COc1cc(CNC(=O)C[C@H](C)CCC=C(C)C)ccc1OCc1cn(-c2ccc([N+](=O)[O-])cc2)nn1	DU-145	SRB	10 µM, 48 h		growth percent	86.4%
Cc1cc(C)nc(NC(=S)N2CCN(Cc3ccc(C(F)(F)F)cc3)CC2)c1	HCC70	cell viability, CellTiter-Glo	4 days		EC50	16000 nM
C=CCON=C(C(O)C(C)O)C(OC)C1Cc2cc3cc(OC4CC(OC5CC(O)C(O)C(C)O5)C(O)C(C)O4)c(C)c(O)c3c(O)c2C(=O)C1OC1CC(OC2CC(OC3CC(C)(O)C(O)C(C)O3)C(O)C(C)O2)C(O)C(C)O1 (stereo not shown)	TC-32	cell growth	72 h		GI50	116 nM
CC(C)=CCc1c(OCC2OC2(C)C)ccc2ccc(=O)oc12 (stereo not shown)	COLO 320 (ABCB1-overexpressing, multidrug-resistant)	cell growth	150 µM starting, CI at ED50, with: doxorubicin, ratio 139.36:1		combination index	0.58
Cc1cc(Nc2ccc(NC(=O)c3ccc(NC(=O)c4ccncc4)cc3)cc2)nc(N)n1	KG-1 with methylated CMV-luciferase	luciferase reporter gene	0.5 µM, 24 h	baseline: untreated	reporter reactivation	1 ± 0.1 fold
CN1CCN(C(=O)N(CCCCCCC(=O)NO)c2ccc(-c3ccc4cnn(C)c4c3)cc2)CC1	MM1.S and RPMI-8226	immunoblot, measured: BCL-xL	concentration not given, 24 h		protein level	decreased
O=C(O)c1ccc(-c2coc3ncc(-c4ccccc4)cc23)cc1Cl	A549 (LKB1-deficient)	immunoblot	concentration not given, 30 min preincubation, with: ionomycin 1 µM for 5 min		AMPKα Thr172 phosphorylation	no inhibition
CCC[C@H]1CC[C@H](c2ccc(NC(=S)NC[C@@H]3[C@@H](O)[C@@H](O)[C@H]4[C@H](O)CCCN43)cc2)CC1	Huh-7	fluorescent lectin imaging	10 µM, 48 h		ConA binding to cell surface	increased
C/C=C(/NC(=O)CCCCCCC)C(=O)N/C(=C/C)C(=O)N[C@H](CC(C)C)C(=O)N[C@@H](CC(C)C)C(=O)Nc1ccc(C(=O)N[C@H](C(=O)O)[C@@H](C)O)cc1	RAW264.7	NO release, inhibitor, Griess	20 µM, 24 h, LPS-stimulated		inhibition	66.4%
CC(C)CNC(=O)[C@@H](NC[C@@H](O)[C@H](Cc1ccccc1)NC(=O)c1cc(C(=O)N[C@H](C)c2ccccc2)cc(N(C)S(C)(=O)=O)c1)[C@H](C)O	MIN6	Tmem27 processing, Western blot, measured: Tmem27 C-terminal fragment	0.4 µM, with: DAPT		remaining C-terminal fragment	< 5%
FC(F)(F)c1ccnc(-c2cc(C(F)(F)F)ccn2)c1.FC(F)(F)c1ccnc(-c2cc(C(F)(F)F)ccn2)c1.[Cl-].[Cl-].[Ru+2].c1csc(-c2ccc(-c3ccc(-c4ccc(-c5nc6c7cccnc7c7ncccc7c6[nH]5)s4)s3)s2)c1	SK-MEL-28	cell viability, resazurin	visible light, hypoxia 1% O2		EC50	130 to 540 nM
O=C(/C=C(O)/C=C/c1cccs1)/C=C/c1cccs1	Caco-2	DCFH-DA, SRB-normalized	10 µM	baseline: untreated cells	intracellular ROS	138 ± 14.2%
CCN1CCC2(CC1)C/C(=N\NC(=O)Nc1ccccc1)c1ccccc1O2	A549	PI staining, flow cytometry	concentration not given, %S		cell cycle distribution	37.3%
O=C(/C=C/c1ccccc1)Oc1ccc2c(c1)O/C(=C\C=C\c1ccccc1)C2=O	HeLa GFP-LC3	Western blot	concentration not given, with: EBSS starvation		LC3-II level	decreased
COc1cc(CNC(=O)C[C@H](C)CCC=C(C)C)ccc1OCc1cn(-c2cccc(C(F)(F)F)c2)nn1	T47D breast cancer cells	SRB	10 µM, 48 h		growth percent	32.4%
COc1cccc(/C=N/NC(=O)COc2ccc(/C=N/NC(=O)C(C)c3ccc(CC(C)C)cc3)cc2)c1O (stereo not shown)	U87 MG	MTT	150 µM, 48 h		viability	22.1%
COc1cc(CN2CCN(c3ccc(OC(F)(F)F)cc3)CC2)c2cc3[n+](cc2c1O)CCc1cc2c(cc1-3)OCO2	HeLa and MDCK	SRB	48 h	baseline: CC50 MDCK over IC50 HeLa	therapeutic index	28.2
COc1cc2c(OC3OCC(OC)C(OC)C3OC(=O)c3ccc(Br)cc3)c3c(c(-c4ccc5c(c4)OCO5)c2cc1OC)C(=O)OC3 (stereo not shown)	CAL-27	western blot, measured: mature cathepsin D	0.1, 1, 2 µM, 36 h, with: bafilomycin A1 0.1 µM	baseline: DMSO	protein level	decreased
